Measurements gathered from unrelated publications.
Each line is one published result; not all experiments were run side by side. Several values in a cell are separate wells, animals, samples, runs or records. ± marks the error that the study gave.
AMY2: Pancreatic alpha-amylase (AMY2, Sus scrofa, UniProt P00690)
SCN5A: Sodium channel protein type 5 subunit alpha (SCN5A, Homo sapiens, UniProt Q14524)
Sequence of UniProt Q14524 (whole entry, looked up): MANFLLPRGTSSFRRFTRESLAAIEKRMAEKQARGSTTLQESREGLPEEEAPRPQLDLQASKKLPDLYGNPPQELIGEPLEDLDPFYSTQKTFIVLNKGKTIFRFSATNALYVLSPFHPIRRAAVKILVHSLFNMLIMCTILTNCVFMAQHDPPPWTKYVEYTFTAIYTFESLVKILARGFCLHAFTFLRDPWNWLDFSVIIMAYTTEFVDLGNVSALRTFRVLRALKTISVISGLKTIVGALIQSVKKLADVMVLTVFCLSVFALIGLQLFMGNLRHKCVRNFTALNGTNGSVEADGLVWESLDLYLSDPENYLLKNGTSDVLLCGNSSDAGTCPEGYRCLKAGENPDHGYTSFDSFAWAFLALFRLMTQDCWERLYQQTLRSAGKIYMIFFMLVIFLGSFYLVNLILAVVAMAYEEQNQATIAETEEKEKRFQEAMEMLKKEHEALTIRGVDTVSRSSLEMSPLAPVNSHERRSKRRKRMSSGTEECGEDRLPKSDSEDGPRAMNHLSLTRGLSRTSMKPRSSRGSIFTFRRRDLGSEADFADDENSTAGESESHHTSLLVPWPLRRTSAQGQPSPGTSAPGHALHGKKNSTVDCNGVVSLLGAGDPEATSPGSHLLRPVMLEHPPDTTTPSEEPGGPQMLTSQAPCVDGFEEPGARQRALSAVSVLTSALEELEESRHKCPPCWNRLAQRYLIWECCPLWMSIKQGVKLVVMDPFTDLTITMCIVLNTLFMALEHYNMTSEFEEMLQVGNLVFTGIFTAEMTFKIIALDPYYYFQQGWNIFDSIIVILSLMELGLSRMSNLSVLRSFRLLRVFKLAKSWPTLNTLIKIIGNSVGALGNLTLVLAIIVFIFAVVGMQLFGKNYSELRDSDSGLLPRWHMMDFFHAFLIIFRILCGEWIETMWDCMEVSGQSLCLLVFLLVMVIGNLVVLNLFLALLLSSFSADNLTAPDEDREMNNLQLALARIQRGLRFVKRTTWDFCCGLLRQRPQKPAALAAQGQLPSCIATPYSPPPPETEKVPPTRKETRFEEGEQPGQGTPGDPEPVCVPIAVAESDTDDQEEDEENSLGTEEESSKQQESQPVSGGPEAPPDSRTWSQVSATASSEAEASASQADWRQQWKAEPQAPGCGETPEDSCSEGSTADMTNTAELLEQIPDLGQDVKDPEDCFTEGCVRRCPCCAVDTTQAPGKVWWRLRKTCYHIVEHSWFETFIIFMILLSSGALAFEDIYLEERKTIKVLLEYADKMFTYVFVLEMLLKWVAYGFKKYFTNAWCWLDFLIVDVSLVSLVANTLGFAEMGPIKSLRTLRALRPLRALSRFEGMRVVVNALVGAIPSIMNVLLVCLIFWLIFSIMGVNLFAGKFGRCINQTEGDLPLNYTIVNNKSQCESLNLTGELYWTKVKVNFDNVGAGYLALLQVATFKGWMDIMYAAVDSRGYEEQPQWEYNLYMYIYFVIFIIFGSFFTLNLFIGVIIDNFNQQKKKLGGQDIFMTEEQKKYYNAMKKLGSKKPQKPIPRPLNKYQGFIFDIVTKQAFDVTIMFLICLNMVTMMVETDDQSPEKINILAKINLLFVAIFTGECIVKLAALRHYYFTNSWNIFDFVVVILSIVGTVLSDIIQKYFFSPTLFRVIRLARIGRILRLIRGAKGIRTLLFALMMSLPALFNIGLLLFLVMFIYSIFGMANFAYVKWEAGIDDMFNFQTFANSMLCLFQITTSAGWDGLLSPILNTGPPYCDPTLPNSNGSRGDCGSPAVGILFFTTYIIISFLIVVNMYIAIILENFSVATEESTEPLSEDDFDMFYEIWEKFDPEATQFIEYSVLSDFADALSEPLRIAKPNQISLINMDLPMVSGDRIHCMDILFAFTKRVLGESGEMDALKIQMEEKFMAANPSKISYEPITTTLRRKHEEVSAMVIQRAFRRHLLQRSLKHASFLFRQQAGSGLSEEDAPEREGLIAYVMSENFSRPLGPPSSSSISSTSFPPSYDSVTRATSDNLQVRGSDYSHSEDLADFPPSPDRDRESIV
HTR5A: 5-hydroxytryptamine receptor 5A (HTR5A, Homo sapiens, UniProt P47898)
Sequence of UniProt P47898 (whole entry, looked up): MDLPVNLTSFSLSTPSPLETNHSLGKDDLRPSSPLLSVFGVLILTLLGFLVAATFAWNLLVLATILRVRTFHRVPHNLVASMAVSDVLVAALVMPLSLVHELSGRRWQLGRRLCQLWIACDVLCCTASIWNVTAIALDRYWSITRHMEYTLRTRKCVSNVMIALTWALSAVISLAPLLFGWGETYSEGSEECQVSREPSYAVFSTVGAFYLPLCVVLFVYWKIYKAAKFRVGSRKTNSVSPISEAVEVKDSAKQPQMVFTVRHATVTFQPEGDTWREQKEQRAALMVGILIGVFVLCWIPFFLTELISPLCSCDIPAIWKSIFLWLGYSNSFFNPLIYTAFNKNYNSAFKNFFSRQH
DRD4: D(4) dopamine receptor (DRD4, Homo sapiens, UniProt P21917)
Sequence of UniProt P21917 (whole entry, looked up): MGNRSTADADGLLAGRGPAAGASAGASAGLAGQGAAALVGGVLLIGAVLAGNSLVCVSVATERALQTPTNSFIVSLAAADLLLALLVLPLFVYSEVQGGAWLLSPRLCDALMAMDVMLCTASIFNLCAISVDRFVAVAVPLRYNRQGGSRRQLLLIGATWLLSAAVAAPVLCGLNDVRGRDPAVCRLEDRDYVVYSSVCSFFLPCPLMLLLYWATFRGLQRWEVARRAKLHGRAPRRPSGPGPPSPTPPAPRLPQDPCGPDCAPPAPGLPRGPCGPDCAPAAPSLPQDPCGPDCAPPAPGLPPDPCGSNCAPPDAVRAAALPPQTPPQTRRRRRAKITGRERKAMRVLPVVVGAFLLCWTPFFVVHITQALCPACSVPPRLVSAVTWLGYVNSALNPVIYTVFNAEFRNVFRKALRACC
HTR2B: 5-hydroxytryptamine receptor 2B (HTR2B, Homo sapiens, UniProt P41595)
HDAC11: Histone deacetylase 11 (HDAC11, Homo sapiens, UniProt Q96DB2)
Sequence of UniProt Q96DB2 (whole entry, looked up): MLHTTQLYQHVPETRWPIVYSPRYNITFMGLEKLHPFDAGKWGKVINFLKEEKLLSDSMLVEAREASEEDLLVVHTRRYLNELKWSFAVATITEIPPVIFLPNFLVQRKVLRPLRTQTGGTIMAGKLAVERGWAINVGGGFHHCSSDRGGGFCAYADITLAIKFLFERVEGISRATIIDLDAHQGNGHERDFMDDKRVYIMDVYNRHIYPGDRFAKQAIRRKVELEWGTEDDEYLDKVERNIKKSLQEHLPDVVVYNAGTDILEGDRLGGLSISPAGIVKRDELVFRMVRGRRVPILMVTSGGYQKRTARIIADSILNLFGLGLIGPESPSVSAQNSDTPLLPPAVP
Sequence of UniProt Q8IWT6 (whole entry, unmodified, looked up): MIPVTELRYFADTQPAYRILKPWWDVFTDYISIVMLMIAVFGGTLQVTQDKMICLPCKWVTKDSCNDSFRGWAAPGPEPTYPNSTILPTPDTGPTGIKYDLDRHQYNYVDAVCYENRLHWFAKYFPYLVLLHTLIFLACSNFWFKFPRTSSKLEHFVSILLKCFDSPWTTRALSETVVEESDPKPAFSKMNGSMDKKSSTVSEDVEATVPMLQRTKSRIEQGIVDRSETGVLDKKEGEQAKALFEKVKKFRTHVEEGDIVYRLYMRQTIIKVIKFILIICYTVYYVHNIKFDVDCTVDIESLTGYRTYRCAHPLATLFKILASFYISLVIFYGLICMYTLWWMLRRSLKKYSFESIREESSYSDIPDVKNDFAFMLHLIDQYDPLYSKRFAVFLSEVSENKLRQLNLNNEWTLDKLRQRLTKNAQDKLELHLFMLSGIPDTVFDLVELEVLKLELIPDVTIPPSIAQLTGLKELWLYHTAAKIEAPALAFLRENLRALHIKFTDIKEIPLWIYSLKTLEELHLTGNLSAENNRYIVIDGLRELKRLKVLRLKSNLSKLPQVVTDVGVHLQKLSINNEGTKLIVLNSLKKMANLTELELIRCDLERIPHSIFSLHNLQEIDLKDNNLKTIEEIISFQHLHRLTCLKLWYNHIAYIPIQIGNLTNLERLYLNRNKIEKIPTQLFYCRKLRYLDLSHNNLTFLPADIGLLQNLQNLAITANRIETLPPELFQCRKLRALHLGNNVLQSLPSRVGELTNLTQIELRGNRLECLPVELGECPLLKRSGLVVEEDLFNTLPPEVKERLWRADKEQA
Sequence of UniProt Q8NER1 (whole entry, looked up): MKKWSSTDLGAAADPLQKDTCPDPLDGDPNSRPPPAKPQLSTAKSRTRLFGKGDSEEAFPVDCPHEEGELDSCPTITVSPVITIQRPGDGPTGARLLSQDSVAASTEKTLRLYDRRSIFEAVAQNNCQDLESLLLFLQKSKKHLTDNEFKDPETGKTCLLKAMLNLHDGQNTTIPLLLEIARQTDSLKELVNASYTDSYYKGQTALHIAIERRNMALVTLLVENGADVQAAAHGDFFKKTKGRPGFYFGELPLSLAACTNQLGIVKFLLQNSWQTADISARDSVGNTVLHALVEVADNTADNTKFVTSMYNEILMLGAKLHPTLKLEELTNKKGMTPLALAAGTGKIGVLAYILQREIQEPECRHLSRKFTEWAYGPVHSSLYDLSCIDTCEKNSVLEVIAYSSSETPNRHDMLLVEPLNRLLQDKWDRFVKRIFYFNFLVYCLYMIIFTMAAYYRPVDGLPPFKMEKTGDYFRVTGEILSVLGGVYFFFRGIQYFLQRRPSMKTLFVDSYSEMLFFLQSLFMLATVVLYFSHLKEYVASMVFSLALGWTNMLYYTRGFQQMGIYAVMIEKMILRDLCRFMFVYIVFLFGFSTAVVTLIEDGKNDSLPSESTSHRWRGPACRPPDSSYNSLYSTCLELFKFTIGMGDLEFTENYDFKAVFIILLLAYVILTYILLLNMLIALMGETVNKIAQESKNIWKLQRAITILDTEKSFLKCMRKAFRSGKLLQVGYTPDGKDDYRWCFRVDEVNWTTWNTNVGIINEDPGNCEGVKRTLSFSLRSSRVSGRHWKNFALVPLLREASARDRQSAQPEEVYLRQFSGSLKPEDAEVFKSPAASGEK

O=c1cc(-c2ccc(O)c(O)c2)oc2cc(O)cc(O)c12  inhibition (AMY2; enzyme activity, inhibitor; 50 µM, added: CNP-G3 substrate): 97.61 ± 0.13%
Cc1ccc(C(=O)Nc2ccc3ccccc3c2)o1  inhibition (SCN5A; ion current, whole-cell patch-clamp; 10 µM, hNaV1.5): 14.8%
CCS(=O)(=O)c1nc(S(=O)(=O)c2ccccc2Cl)c(N2CCN(C)C(=O)[C@H]2C)s1  inhibition (HTR5A; 10 µM): 12.4%
NC/C(=C\F)COc1cccc(Cn2c(=S)[nH]c(=O)c3[nH]cnc32)c1  inhibition (SCN5A; peak sodium current, inhibitor, automated patch clamp; 100 µM, pulse 9, single recording): 25.5%
COc1ccc2c(c1)CN(CCCN1CCN(c3ccccc3OC)CC1)C2=O  inhibition (DRD4; radioligand binding; concentration not given, added: [3H]N-methylspiperone): 97.3%
O=C(NO)c1ccc(CN2CCCCc3ccccc32)c(F)c1  inhibition (sigma-2 receptor; radioligand binding; 10 µM, mean): -5.45%
CC[C@@H]1[C@H](F)C(=O)N[C@@H]1COc1nccc2cc(C(N)=O)c(OC)cc12  inhibition (PRKCI (Homo sapiens, UniProt P41743); ATP probe binding, KiNativ profiling, measured: Lys2 probe site; THP-1 cell lysate; 0.2 mM): -0.0196%
CC(C)c1noc2ncc(C(=O)c3ccccc3O)cc12  inhibition (SCN5A; ion current, whole-cell patch-clamp; 10 µM, hNaV1.5): 8.87%
COc1ccc2c(c1)C(=O)N(CCCN1CCN(c3ccccc3OC)CC1)C2  inhibition (HTR2B; radioligand binding; concentration not given, added: [3H]LSD): 95.3%
Oc1cc2c(cc1O)CN(C(=S)NCCc1ccc(Cl)cc1)CCC2  inhibition (TRPV1 (Homo sapiens, UniProt Q8NER1); HEK293T; concentration not given): 94.6% and 93.8%
Clc1cncc(OC[C@H]2CN(CCN3CCc4ccccc43)CCO2)c1  inhibition (DRD4; radioligand binding; concentration not given, added: [3H]N-methylspiperone): 66.2%
O=C(c1ccc(F)cc1)C1CCN(CCn2c(=O)[nH]c3ccccc3c2=O)CC1  inhibition (5-hydroxytryptamine receptor 2A (Rattus norvegicus, UniProt P14842); radioligand binding; rat; 10 µM): 99.2%
CCN(Cc1ccccc1C(F)(F)F)C(=O)C1CCN(S(=O)(=O)c2ccc3[nH]ncc3c2)CC1  inhibition (rat P2Y receptor; radioligand binding; 10 µM): 4%
CCN(c1cc(C#CCN2CCOCC2)cc(C(=O)NCc2c(C)cc(C)[nH]c2=O)c1C)[C@H]1CC[C@H](N(C)CCOC)CC1  inhibition (Protein arginine N-methyltransferase 5, with WDR77 (PRMT5, Homo sapiens, UniProt O14744); methyltransferase activity; 1 µM): -4 ± 2%
CCc1oc2ccccc2c1C(=O)c1cc(Br)c(O)c(Br)c1  inhibition (SLC22A12 (Homo sapiens, UniProt Q96S37, I156A); urate uptake; HEK293T; 0.5 µM, 10 min, 37 °C, added: 200 µM [14C]urate): 5.2% and 17.3% and 1.7% and 14.8%
C[C@H](CCC(=O)O)[C@H]1CC[C@H]2[C@@H]3C(=O)C[C@@H]4CC(=O)CC[C@]4(C)[C@H]3CC(=O)[C@]12C  inhibition (TLR2 (Homo sapiens, UniProt O60603); SEAP reporter gene, antagonist; HEK-Blue hTLR2; 10 µM, added: Pam3CSK4): > 90%
c1cncc(OC[C@@H]2CN(CCN3CCc4ccccc43)CCO2)c1  inhibition (DRD4; radioligand binding; concentration not given, added: [3H]N-methylspiperone): 102%
COc1cc(-c2cc(-c3ccc(N4CCNCC4)cc3)cnc2C)cc(OC)c1OC  inhibition (RPS6KB2 (Homo sapiens, UniProt Q9UBS0); kinome profiling; 1 µM): 13%
COc1cc2c(cc1OC)C(=O)N(CCCCN1CCN(c3ccccc3OC)CC1)C2  inhibition (DRD4; radioligand binding; concentration not given, added: [3H]N-methylspiperone): 91.6%
Cc1cc2c(cc1N1C(=O)c3cccc4c(CCCO)ccc(c34)C1=O)n(C)c(=O)n2C (racemic)  inhibition (Protein polybromo-1, BD5 (PBRM1, Homo sapiens, UniProt Q86U86); binding, BROMOscan binding; 1000 nM): 70%
CC1=C(C(=O)OC(C)C)C(c2ccccc2Br)C2=C(CC(C)(C)CC2=O)N1 (centres unmarked)  inhibition (β2 adrenergic receptor; GTPγS binding; 20 µM, added: isoproterenol 10 µM): no inhibition
Cc1cc(-c2ccnc3[nH]cc(F)c23)cc(F)c1[C@@]1(O)[C@H](C)CN(C2CCS(=O)(=O)CC2)C[C@@H]1C  inhibition (AMPK alpha1 and alpha2; ATP probe binding, KiNativ, measured: Lys1 site; HEK293T cell lysate; 10 µM): 78.4%
O=c1c(O)c(-c2ccc(O)cc2)oc2cc(O)cc(O)c12  inhibition (AMY2; enzyme activity, inhibitor; 50 µM, added: CNP-G3 substrate): 87.3 ± 2.31%
O=C(NO)c1cccc(OS(=O)(=O)Oc2ccc(-c3ccc(C(F)(F)F)cc3)cc2)c1  inhibition (HDAC11; 10 µM): 52%
O=C(Nc1cccc2c(=O)cc(-c3nnn[nH]3)oc12)c1ccc(OCCCCc2ccccc2)cc1  inhibition (LRRC8A/LRRC8C (Homo sapiens, UniProt Q8IWT6+Q8TDW0, Y124F/Y126F); ion current, whole-cell patch clamp; HCT LRRC8-/- cells; 0.3 µM, +100 mV, Y124F/Y126F heteromers): -8.61% and 26.9% and 5.57% and -12.4% and -11.5% and -8.44%
Cc1cc(C(C)(C)C)ccc1OS(=O)(=O)Oc1cc(F)cc(C(=O)NO)c1  inhibition (HDAC11; 10 µM): 53%
COc1cccc(OC[C@@H]2CN(CC(=O)N3CCc4ccccc43)CCO2)c1  inhibition (HTR5A; radioligand binding; concentration not given, added: [3H]LSD): 14.6%
CN(C(=O)n1cnc(-c2ccc[n+]([O-])c2)c1)C1CCCCC1  inhibition (DRD4; 10 µM): 3.29%
O=C(CN1CCO[C@H](COc2cccc(Cl)c2)C1)N1CCc2ccccc21  inhibition (HTR5A; radioligand binding; concentration not given, added: [3H]LSD): 2%
COc1cccc(OS(=O)(=O)Oc2cccc(C(=O)NO)c2)c1  inhibition (HDAC11; 10 µM): 21%
O=C(CN1CCO[C@@H](COc2cccnc2)C1)N1CCc2ccccc21  inhibition (HTR2B; radioligand binding; concentration not given, added: [3H]LSD): 54%
Cc1nn(-c2nc3c(F)cc(F)cc3s2)c(O)c1C(c1ccccc1C(=O)O)c1c(C)nn(-c2nc3c(F)cc(F)cc3s2)c1O  inhibition (Cyclic GMP-AMP synthase, catalytic domain; with DNA (CGAS, Homo sapiens, UniProt Q8N884); cGAS phase separation, inhibitor; 5 µM): 99.6%
